# Experimental data gathered from unrelated publications.
# Numbered parts are unrelated; each lists some results of a single study.

# Series 1
# Target: Max-binding protein MNT, bHLH-zipper, MAX partner unstated (MNT, Homo sapiens, UniProt Q99583, residues 220-300)
# Technique: protein-binding microarray
# Form: double-stranded DNA, one strand shown
# Medium: in vitro
# Tested at: not given
# Notes: k-mer, scored over probes, only values ≥0.25
# Reading: higher = stronger binding
# Residues (chain): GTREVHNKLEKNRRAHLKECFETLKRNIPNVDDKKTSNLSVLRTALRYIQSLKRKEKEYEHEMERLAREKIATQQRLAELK
Sequence,E-score
CTACATGC,0.293
GTACACGA,0.348
CATGTGTA,0.453

# Series 2
# Target: Interferon regulatory factor 3, full length, phosphomimetic (IRF3, Homo sapiens, UniProt Q14653, residues 1-427, S386D/S396D/S398D/S402D/T404D/S405D)
# Technique: protein-binding microarray
# Form: double-stranded DNA, one strand shown
# Medium: in vitro
# Tested at: 2540 nM top
# Notes: 60-bp whole probe
# Together with: salmon DNA 0.4 mg/ml
# Reference: random background probes
# Reading: higher = stronger binding
# All sequences stand within: GCCTAGCACT … GTCTTGATTCGCTTGACGCTGCTG
# Residues (chain): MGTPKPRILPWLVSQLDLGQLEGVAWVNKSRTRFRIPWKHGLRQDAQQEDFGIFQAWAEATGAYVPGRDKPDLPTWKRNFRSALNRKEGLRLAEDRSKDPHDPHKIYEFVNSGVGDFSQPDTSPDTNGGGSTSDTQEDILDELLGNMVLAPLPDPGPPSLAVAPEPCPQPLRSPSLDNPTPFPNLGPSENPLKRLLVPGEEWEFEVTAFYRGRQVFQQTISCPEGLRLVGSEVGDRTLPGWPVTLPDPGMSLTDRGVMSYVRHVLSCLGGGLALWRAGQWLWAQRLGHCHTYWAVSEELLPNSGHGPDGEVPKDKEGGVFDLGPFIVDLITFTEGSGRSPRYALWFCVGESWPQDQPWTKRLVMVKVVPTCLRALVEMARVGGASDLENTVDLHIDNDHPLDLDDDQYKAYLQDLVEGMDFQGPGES
Sequence,fitted relative affinity [z-score]
CAGGTATCGGTTTCGGTTAGTGCTAG,8.57
TAGGTATCGGGAATCGGTTAGTGCTA,0.658
TAGGTATCCTTCTCCTTTGGTGCTAG,6.69
TTCTTTTTGCACTCTCTACGTGCTAG,4.03
TTTCTCTGGTTCTTGCTTGGTGCTAG,1.8

# Series 3
# Target: Fragile X messenger ribonucleoprotein 1, C-terminal low-complexity region (Fmr1, Mus musculus, UniProt P35922)
# Technique: RNA Bind-n-Seq
# Form: RNA
# Medium: in vitro
# Tested at: 200 nM
# Notes: whole 134-nt RNA, ends assumed
# Together with: 150 mM KCl
# Reference: input library
# Reading: higher = stronger binding
Sequence,log2 enrichment
GGGAGUUCUACAGUCCGACGAUCUGUGAGCGGAGCCUGGAGGAGCUGCUGCACUACGUGGGCCAGCUGCGGGCUGAGCUGGCCAGCGCAGGUGGGUGGCCACCCUUGCAAGUGUGGAAUUCUCGGGUGUCAAGG,0.407
GGGAGUUCUACAGUCCGACGAUCUGGGAGGUGGAUUUUGUUUAUUUUUUUAGCUCAUUUCCAGGGGUGGGAAUUUUUUUAUAAUAUGUGUCAUGAAUAAAGUUGUUUUUGAAAUGGAAUUCUCGGGUGUCAAGG,0.366
GGGAGUUCUACAGUCCGACGAUCUGGCCCUGGUGGCAUGCGGGGAGGAAGAGGUGGCCUCAUGGAUCCUGGUGGUCCCGGUGGAAUGUUCAGAGGUGGCCGUGGUGGAGACAGUGGAAUUCUCGGGUGUCAAGG,-0.0456
GGGAGUUCUACAGUCCGACGAUCUGGGAGGUGGAUUUUGUUUAUUUUUUUAGCUCAUUUCCAGGGGUGGGAAUUUUUUUUUAAUAUGUGUCAUGAAUAAAUUUGUUUUUGAAAUGGAAUUCUCGGGUGUCAAGG,0.369

# Mixed results
Substance,target,test,system,setting,how to read,quantity,value
"PhoQ, residues 284 288 289 292 302 303 ASHLAV","PhoP, residues 12 14 15 18 19 AQALL (Escherichia coli, UniProt P23836)","Sort-seq, refers to: YFP reporter",E. coli,"PhoQ-PhoP variant library, together with: 10 µM Mg2+","reference: high Mg2+ state, higher = stronger signaling",fold induction,2.04

# Some of these lines once more (series 2):
Sequence,fitted relative affinity [z-score]
TAGGTATCCTTCTCCTTTGGTGCTAG,6.69
